{"data": "Published values of several laboratories", "note": "A part holds a random share of what one study measured. Changes are numbered by the printed parent chain."}
{"data": "Block 1", "target": "Histone acetyltransferase KAT6A, winged helix 1, GST fusion (KAT6A, Homo sapiens, UniProt Q92794, residues 1-85)", "method": "protein binding microarray", "molecule type": "double-stranded DNA, one strand shown", "matrix": "in vitro", "concentration": "not given", "notes": "8-mer, flanks averaged, mean of 2 arrays, mostly near background", "relative to": "not given", "reading": "higher = stronger binding", "Construct (chain)": "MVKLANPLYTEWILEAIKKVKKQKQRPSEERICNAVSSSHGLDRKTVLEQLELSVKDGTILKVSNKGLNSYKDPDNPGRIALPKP"}
{"Oligonucleotide": "AGTTCGCG", "E-score": 0.214}
{"Oligonucleotide": "CATTCACC", "E-score": 0.00352}
{"Oligonucleotide": "TAGGATGA", "E-score": 0.0303}
{"Oligonucleotide": "CTTAATTA", "E-score": -0.173}
{"Oligonucleotide": "TACCATCA", "E-score": -0.137}
{"Oligonucleotide": "CCTGCGAC", "E-score": -0.0213}
{"Oligonucleotide": "GAGAGGCC", "E-score": -0.12}
{"Oligonucleotide": "CCTCGATA", "E-score": 0.0558}
{"Oligonucleotide": "AAGTATGG", "E-score": -0.175}
{"Oligonucleotide": "GCGCAAAA", "E-score": 0.178}
{"Oligonucleotide": "GGAGAACA", "E-score": -0.12}
{"Oligonucleotide": "ATTCAACC", "E-score": -0.0564}
{"Oligonucleotide": "GTGCCTGA", "E-score": -0.115}
{"Oligonucleotide": "CCTCATTA", "E-score": -0.125}
{"Oligonucleotide": "CAGGATCC", "E-score": -0.0411}
{"Oligonucleotide": "CGCCAGCA", "E-score": 0.00137}
{"data": "Block 2", "target": "CEP164, C-terminal peptide (human)", "method": "DHFR complementation, deep sequencing", "matrix": "yeast", "notes": "single substitutions, model-inferred values", "relative to": "wild type", "reading": "higher = weaker binding", "parent": "PDZK1, PDZ domain 2 (human); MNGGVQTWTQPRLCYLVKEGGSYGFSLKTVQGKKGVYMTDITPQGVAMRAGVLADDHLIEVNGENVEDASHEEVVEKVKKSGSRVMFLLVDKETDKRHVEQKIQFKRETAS; partner HNRVKVYRF"}
{"Substitution": "E76F", "binding free energy change [kcal/mol]": 0.234}
{"Substitution": "N65W", "binding free energy change [kcal/mol]": 0.0358}
{"Substitution": "E72Q", "binding free energy change [kcal/mol]": 0.558}
{"Substitution": "I59P", "binding free energy change [kcal/mol]": 0.674}
{"Substitution": "V75Q", "binding free energy change [kcal/mol]": 1.77}
{"Substitution": "G4H", "binding free energy change [kcal/mol]": -0.00356}
{"Substitution": "V5I", "binding free energy change [kcal/mol]": -0.0199}
{"Substitution": "S111M", "binding free energy change [kcal/mol]": 0.413}
{"Substitution": "E67S", "binding free energy change [kcal/mol]": 0.274}
{"Substitution": "Q6D", "binding free energy change [kcal/mol]": -0.0456}
{"Substitution": "V85I", "binding free energy change [kcal/mol]": 0.221}
{"Substitution": "L89W", "binding free energy change [kcal/mol]": 1.47}
{"Substitution": "M86Q", "binding free energy change [kcal/mol]": -0.0906}
{"Substitution": "V61M", "binding free energy change [kcal/mol]": 1.26}
{"Substitution": "M1F", "binding free energy change [kcal/mol]": -0.00212}
{"Substitution": "Q104K", "binding free energy change [kcal/mol]": -0.17}
{"Substitution": "D95V", "binding free energy change [kcal/mol]": -0.106}
{"Substitution": "A47V", "binding free energy change [kcal/mol]": 0.527}
{"Substitution": "G82K", "binding free energy change [kcal/mol]": 0.68}
{"Substitution": "I59F", "binding free energy change [kcal/mol]": 0.609}
{"Substitution": "G45C", "binding free energy change [kcal/mol]": 1.35}
{"Substitution": "I103K", "binding free energy change [kcal/mol]": -0.11}
{"Substitution": "K34V", "binding free energy change [kcal/mol]": 0.294}
{"data": "Block 3", "target": "NFE2L3, bZIP domain (human)", "method": "DHFR protein complementation", "matrix": "yeast", "notes": "single substitutions, most at no-binding floor", "relative to": "wild-type JUN-FOS pair", "reading": "higher = stronger binding", "parent": "JUN, bZIP domain (human); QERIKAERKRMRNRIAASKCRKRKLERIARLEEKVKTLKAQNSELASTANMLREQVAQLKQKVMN; partner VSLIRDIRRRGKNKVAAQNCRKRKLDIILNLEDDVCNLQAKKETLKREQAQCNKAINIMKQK"}
{"Substitution": "T37W", "binding fitness": "-1.53 natural log"}
{"Substitution": "Q41F", "binding fitness": "-1.54 natural log"}
{"Substitution": "I28G", "binding fitness": "-1.48 natural log"}
{"Substitution": "I28E", "binding fitness": "-1.26 natural log"}
{"Substitution": "S47F", "binding fitness": "-1.36 natural log"}
{"Substitution": "L38C", "binding fitness": "-1.36 natural log"}
{"Substitution": "E44W", "binding fitness": "-1.57 natural log"}
{"Substitution": "M51T", "binding fitness": "-1.45 natural log"}
{"Substitution": "A29Y", "binding fitness": "-1.55 natural log"}
{"Substitution": "N42P", "binding fitness": "-1.54 natural log"}
{"Substitution": "V56A", "binding fitness": "-1.52 natural log"}
{"Substitution": "S47V", "binding fitness": "-1.33 natural log"}
{"Substitution": "A40Y", "binding fitness": "-1.52 natural log"}
{"Substitution": "K39L", "binding fitness": "-1.41 natural log"}
{"Substitution": "E32I", "binding fitness": "-1.5 natural log"}
{"Substitution": "K39N", "binding fitness": "-1.46 natural log"}
{"Substitution": "L31P", "binding fitness": "-1.48 natural log"}
{"Substitution": "M51C", "binding fitness": "-1.39 natural log"}
{"data": "Block 4", "target": "Fragile X messenger ribonucleoprotein 1, C-terminal low-complexity region (Fmr1, Mus musculus, UniProt P35922)", "method": "RNA Bind-n-Seq", "molecule type": "RNA", "matrix": "in vitro", "concentration": "200 nM", "notes": "whole 134-nt RNA, ends assumed", "added": "150 mM KCl", "relative to": "input library", "reading": "higher = stronger binding", "shared flanks, not repeated": "GGGAGUUCUACAGUCCGACGAUC … UGGAAUUCUCGGGUGUCAAGG"}
{"Oligonucleotide": "UCCUGUGCUACACAUCGUAUGUACCGAAUCAAAUUUUUUUAAACCCAAACCCCCCCAAAAAAGUAUUAUGUUACGCCGUUCGGAUCUGCA", "log2 enrichment": 0.0158}
{"Oligonucleotide": "CACAGACAACACGCACCCACACAGACAGAGAGGGAAGGGGUUGGGAUGGGGACAGGGUGCACAGCAGGGCGGGGUAGGACCCCAGCCCCU", "log2 enrichment": 1.21}
{"Oligonucleotide": "AGUCCUGUGCUACACAUCGUAUGUACCGAAUCGGGUUUUUGGGUGGGAAAAAAAGGGAAAGUAUUAUGUUACGCCGUUCGGAUCUGCACU", "log2 enrichment": 0.291}
{"Oligonucleotide": "CUGUGCUACACAUCGUAUGUACCGAAUCGGAAAAAAAGGGAAAAAAAGGGGAAAAAAAGGGGAAAGUAUUAUGUUACGCCGUUCGGAUCU", "log2 enrichment": -0.307}
{"Oligonucleotide": "UAACUUUAGAGGAGGAUCUGAUGGAUAUGGCAGUGGACGUGGAUUAGGGGAUGGCUAUAAUGGGUAUGGAGGAGGACCUGGAGGUGGCAA", "log2 enrichment": 0.257}
{"Oligonucleotide": "CCUGUGCUACACAUCGUAUGUACCGAAUCGGAAAAAAGGGGAAAAAAGGGGAAAAAAGGGAAAGUAUUAUGUUACGCCGUUCGGAUCUGC", "log2 enrichment": -0.409}
{"Oligonucleotide": "AAGUCCUGUGCUACACAUCGUAUGUACCGAAUCGGUUUGGUUUUUGGAAAAAAAGGAAAGUAUUAUGUUACGCCGUUCGGAUCUGCACUU", "log2 enrichment": -0.792}
{"Oligonucleotide": "UCCUGUGCUACACAUCGUAUGUACCGAAUCGGGGUUUUUGGGGUUUUUUUGGGGUGGGGAAAGUAUUAUGUUACGCCGUUCGGAUCUGCA", "log2 enrichment": 0.967}
{"Oligonucleotide": "UGGCCCUGGUGGCAUGCGGGGAGGAAGAGGUGGCCUCAUGGAUCGUGGUGGUCCCGGUGGAAUGUUCAGAGGUGGCCGAGGUGGAGACAG", "log2 enrichment": -0.156}
{"Oligonucleotide": "AGUCCUGUGCUACACAUCGUAUGUACCGAAUCGGGGAGGGGUUUUUUUGGGGAGGGGAAAGUAUUAUGUUACGCCGUUCGGAUCUGCACU", "log2 enrichment": 1.08}
{"data": "Block 5", "target": "ABI1, truncated, D143A, DHFR fusion (Arabidopsis thaliana)", "method": "DHFR PCA, deep sequencing", "matrix": "yeast", "notes": "methotrexate growth selection, single substitutions", "added": "(+)-ABA 58 µM", "relative to": "wild-type fitted maximum", "reading": "higher = stronger binding", "parent": "PYL1, truncated, DHFR fusion (Arabidopsis thaliana); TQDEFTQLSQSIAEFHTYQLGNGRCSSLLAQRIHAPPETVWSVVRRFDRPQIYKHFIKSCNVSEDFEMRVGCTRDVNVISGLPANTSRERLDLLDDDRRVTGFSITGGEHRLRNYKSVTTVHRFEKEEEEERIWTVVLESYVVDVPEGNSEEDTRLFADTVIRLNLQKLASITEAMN; partner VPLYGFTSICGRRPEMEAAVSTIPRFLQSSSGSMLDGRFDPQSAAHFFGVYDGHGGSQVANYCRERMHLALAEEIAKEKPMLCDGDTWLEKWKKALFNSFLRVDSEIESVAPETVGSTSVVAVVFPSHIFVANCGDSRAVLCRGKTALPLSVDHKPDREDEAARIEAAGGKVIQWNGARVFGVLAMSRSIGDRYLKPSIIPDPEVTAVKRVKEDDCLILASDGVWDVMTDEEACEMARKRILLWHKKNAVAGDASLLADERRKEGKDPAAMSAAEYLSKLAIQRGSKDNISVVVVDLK"}
{"Substitution": "T39G", "relative binding score [%]": 57.4}
{"Substitution": "G148N", "relative binding score [%]": 75.7}
{"Substitution": "I57V", "relative binding score [%]": 83.5}
{"Substitution": "C25V", "relative binding score [%]": 92.7}
{"Substitution": "T17A", "relative binding score [%]": 76.7}
{"Substitution": "E89T", "relative binding score [%]": -2.69}
{"Substitution": "V137K", "relative binding score [%]": -17.9}
{"Substitution": "V62R", "relative binding score [%]": 26}
{"Substitution": "I12M", "relative binding score [%]": 67}
{"Substitution": "L29T", "relative binding score [%]": 56.2}
{"Substitution": "Q167D", "relative binding score [%]": 70.6}
{"Substitution": "A30E", "relative binding score [%]": 79}
{"Substitution": "E139Q", "relative binding score [%]": 85.4}
{"Substitution": "F47D", "relative binding score [%]": 1.3}
{"Substitution": "R49H", "relative binding score [%]": 76.8}
{"data": "Block 6", "target": "CCND1, cyclin fold, Cln2 fusion (human)", "method": "yeast growth competition, sequencing", "matrix": "yeast", "notes": "strong parent motif", "relative to": "not given", "reading": "higher = stronger binding", "parent": "PKN2 docking peptide (human); VSAVQKLDFSDTM; partner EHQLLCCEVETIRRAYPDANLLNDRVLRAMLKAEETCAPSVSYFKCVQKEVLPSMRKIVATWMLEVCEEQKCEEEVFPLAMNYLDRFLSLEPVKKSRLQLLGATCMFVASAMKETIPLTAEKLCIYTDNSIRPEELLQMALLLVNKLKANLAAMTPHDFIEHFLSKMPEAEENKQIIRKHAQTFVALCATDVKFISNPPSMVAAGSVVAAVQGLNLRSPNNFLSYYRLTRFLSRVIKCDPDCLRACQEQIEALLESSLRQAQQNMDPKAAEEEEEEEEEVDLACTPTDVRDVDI"}
{"Substitution": "K6P", "normalised enrichment score": 0.248}
{"Substitution": "V1S", "normalised enrichment score": 2.62}
{"Substitution": "T12M", "normalised enrichment score": 1.85}
{"Substitution": "S10V", "normalised enrichment score": 1.44}
{"Substitution": "D11H", "normalised enrichment score": 1.49}
{"Substitution": "M13I", "normalised enrichment score": 1.81}
{"Substitution": "S10M", "normalised enrichment score": 1.75}
{"Substitution": "V1I", "normalised enrichment score": 1.95}
{"Substitution": "K6Y", "normalised enrichment score": 1.89}
{"Substitution": "K6I", "normalised enrichment score": 0.979}
{"Substitution": "D11S", "normalised enrichment score": 1.88}
{"Substitution": "D8H", "normalised enrichment score": 0.199}
{"Substitution": "A3H", "normalised enrichment score": 0.935}
{"Substitution": "S2F", "normalised enrichment score": 1.61}
{"Substitution": "V4E", "normalised enrichment score": 0.728}
{"Substitution": "D8N", "normalised enrichment score": 0.976}
{"Substitution": "T12R", "normalised enrichment score": 1.7}
{"Substitution": "S2K", "normalised enrichment score": 1.7}
{"data": "Mixed results"}
{"Substance": "PhoQ, residues 284 288 289 292 302 303 TAVSDG", "target": "PhoP, residues 12 14 15 18 19 NFCKL (Escherichia coli, UniProt P23836)", "assay": "Sort-seq, item: YFP reporter", "system": "E. coli", "setting": "PhoQ-PhoP variant library, added: 10 µM Mg2+", "scale": "relative to: high Mg2+ state, higher = stronger signaling", "measurement": "fold induction", "result": 0.905}
{"note": "A few entries again (block 5):"}
{"Substitution": "A30E", "relative binding score [%]": 79}
{"Substitution": "F47D", "relative binding score [%]": 1.3}
{"Substitution": "I12M", "relative binding score [%]": 67}
{"Substitution": "V62R", "relative binding score [%]": 26}
{"Substitution": "C25V", "relative binding score [%]": 92.7}
{"Substitution": "V137K", "relative binding score [%]": -17.9}
{"Substitution": "I57V", "relative binding score [%]": 83.5}
